Measured values gathered from unrelated publications.
Every numbered part comes from another study and shows a few of its results, in no order. Substitutions count along the parent as printed.

Block 1 — technique: universal PBM; molecule type: double-stranded DNA, one strand shown; medium: in vitro; tested at: not given; reading: higher = stronger binding; measurement: E-score
Target: Sal-like protein 4, full length isoform B (SALL4, Homo sapiens, UniProt Q9UJQ4-2, residues 1-616)
Setting: 8-mer, flanks averaged, mean of replicates
Construct (chain): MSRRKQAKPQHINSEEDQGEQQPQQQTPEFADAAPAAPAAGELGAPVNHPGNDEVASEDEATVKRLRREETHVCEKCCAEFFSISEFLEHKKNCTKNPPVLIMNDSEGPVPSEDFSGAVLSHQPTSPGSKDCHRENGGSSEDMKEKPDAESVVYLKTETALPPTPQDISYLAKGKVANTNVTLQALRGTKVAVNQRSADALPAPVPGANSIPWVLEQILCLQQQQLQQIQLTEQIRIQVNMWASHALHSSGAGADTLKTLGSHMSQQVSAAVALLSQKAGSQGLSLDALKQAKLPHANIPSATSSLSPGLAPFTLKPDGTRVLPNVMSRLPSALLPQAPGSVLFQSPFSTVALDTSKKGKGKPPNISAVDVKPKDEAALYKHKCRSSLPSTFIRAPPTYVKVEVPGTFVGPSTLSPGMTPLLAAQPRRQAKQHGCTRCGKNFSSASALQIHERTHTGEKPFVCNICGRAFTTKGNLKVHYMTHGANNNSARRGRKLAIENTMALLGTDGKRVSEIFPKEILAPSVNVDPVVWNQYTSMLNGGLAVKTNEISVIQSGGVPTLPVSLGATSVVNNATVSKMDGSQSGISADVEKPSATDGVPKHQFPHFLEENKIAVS
ATTGAACC: 0.0668
AACCGGAT: -0.013
CGGTTGCA: -0.205
AGACCACT: 0.0048
ACCTGAGT: -0.0979
GCCATCCA: -0.236
TAATGGAA: 0.254
CCACTCCA: -0.0869

Block 2 — target: CCNA2, cyclin fold, Cln2 fusion (human); technique: yeast growth competition, sequencing; medium: yeast; setting: strong parent motif; relative to: not given; reading: higher = stronger binding; measurement: normalised enrichment score
Starting sequence: RBL2 docking peptide (human); STTRRRLFVENDS; partner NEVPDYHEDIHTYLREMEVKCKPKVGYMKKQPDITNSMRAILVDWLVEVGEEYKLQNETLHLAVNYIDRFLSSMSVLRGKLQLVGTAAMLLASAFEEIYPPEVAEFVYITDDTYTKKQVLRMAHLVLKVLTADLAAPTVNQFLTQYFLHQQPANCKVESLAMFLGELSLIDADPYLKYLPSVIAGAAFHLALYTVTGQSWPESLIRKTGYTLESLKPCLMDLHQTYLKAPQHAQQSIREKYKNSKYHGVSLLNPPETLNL
STSRRRLFVENDS [T3S]: 5.33
STTARRLFVENDS [R4A]: 4.14
STTRARLFVENDS [R5A]: 0.103
SNTRRRLFVENDS [T2N]: 6.36
STTRRRLFVFNDS [E10F]: 4.49
STTRRRLFVEPDS [N11P]: 6.85

Block 3 — technique: protein-binding microarray; molecule type: double-stranded DNA, one strand shown; medium: in vitro; tested at: 2540 nM top; setting: 60-bp whole probe; added: salmon DNA 0.4 mg/ml; relative to: random background probes; reading: higher = stronger binding; measurement: fitted relative affinity; constant ends, left off below: GCCTAGCAC … GTCTTGATTCGCTTGACGCTGCTG
Target: Interferon regulatory factor 3, full length, phosphomimetic (IRF3, Homo sapiens, UniProt Q14653, residues 1-427, S386D/S396D/S398D/S402D/T404D/S405D)
UniProt Q14653, sequence (whole entry, unmodified, looked up): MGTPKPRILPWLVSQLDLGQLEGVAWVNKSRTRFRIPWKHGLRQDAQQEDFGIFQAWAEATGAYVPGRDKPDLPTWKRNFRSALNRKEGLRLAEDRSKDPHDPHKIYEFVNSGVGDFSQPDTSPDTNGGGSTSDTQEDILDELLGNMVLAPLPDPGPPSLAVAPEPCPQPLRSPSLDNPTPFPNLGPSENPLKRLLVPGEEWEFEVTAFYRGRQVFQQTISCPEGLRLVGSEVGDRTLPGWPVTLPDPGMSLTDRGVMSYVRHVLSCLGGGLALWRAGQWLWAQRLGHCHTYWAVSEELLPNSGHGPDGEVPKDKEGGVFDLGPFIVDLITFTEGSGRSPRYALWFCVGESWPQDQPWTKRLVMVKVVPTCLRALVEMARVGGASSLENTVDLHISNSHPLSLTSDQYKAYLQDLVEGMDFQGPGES
GACGGTTGCGACTTTCGGGACGTGCTA: 1.25 z-score
TTAGATTTCCGTTCCGATTAGTGCTAG: 5.31 z-score
CTAGGACTGCTACTGCTTTAGTGCTAG: -0.631 z-score
GACGGTCTCCTTTTCCTGCCGTGCTAG: 4.68 z-score
TCACTTTCCTTTATGTAACTGTGCTAG: 7.75 z-score
CTTTCTCTGCTCTTTTCAACAGTGCTA: 5.85 z-score
TTACGACTGCTTCTCCTTTAGTGCTAG: 0.00892 z-score
TTAGCACTGCTTCTCCTTTAGTGCTAG: -0.248 z-score

Single results of other studies
PhoQ, residues 284 288 289 292 302 303 SLANIV
fold induction (PhoP, residues 12 14 15 18 19 NHFIF (Escherichia coli, UniProt P23836); Sort-seq, measured: YFP reporter; E. coli; PhoQ-PhoP variant library, added: 10 µM Mg2+; relative to: high Mg2+ state, higher = stronger signaling): 20.8

For quick reference, copied from above (block 1):
GCCATCCA: -0.236
ATTGAACC: 0.0668
